Published values pooled from the literature.
Lines come from different studies, so protocols differ. Several values in a cell are separate wells, animals, samples, runs or records.
slo: slo (Streptococcus pyogenes, UniProt P0C0I3)
Chain of UniProt P0C0I3 (whole entry, looked up): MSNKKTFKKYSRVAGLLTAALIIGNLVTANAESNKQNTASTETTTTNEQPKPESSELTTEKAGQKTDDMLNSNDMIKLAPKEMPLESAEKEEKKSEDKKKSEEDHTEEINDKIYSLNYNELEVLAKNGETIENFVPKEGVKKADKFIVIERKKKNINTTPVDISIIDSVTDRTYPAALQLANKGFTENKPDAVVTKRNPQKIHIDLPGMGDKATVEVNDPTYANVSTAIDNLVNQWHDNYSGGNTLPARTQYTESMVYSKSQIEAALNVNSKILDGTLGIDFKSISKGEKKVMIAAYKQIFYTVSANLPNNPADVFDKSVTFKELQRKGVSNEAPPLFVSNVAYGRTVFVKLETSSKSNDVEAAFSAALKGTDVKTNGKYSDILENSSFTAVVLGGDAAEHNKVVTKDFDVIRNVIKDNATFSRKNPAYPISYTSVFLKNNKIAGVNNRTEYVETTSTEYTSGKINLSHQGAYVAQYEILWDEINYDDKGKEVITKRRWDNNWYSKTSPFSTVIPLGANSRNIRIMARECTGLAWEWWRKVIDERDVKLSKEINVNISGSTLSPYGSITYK
SLC6A4: Sodium-dependent serotonin transporter (SLC6A4, Homo sapiens, UniProt P31645)
Chain of UniProt P31645 (whole entry, looked up): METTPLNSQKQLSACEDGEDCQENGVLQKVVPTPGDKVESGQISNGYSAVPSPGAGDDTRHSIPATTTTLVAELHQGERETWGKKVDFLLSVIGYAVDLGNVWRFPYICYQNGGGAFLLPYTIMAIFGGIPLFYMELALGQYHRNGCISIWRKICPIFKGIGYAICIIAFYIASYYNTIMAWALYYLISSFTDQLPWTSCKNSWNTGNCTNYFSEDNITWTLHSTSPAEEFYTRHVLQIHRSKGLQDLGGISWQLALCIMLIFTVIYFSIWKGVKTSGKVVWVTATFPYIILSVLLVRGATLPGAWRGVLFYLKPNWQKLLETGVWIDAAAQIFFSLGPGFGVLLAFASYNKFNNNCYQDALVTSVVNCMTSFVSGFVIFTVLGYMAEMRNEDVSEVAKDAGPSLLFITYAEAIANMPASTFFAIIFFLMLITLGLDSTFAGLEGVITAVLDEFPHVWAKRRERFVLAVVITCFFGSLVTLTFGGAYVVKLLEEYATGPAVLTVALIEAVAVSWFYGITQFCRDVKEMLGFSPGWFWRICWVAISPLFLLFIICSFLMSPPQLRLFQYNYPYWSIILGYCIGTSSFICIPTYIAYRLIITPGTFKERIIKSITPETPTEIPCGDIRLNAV
CNR2: Cannabinoid receptor 2 (CNR2, Homo sapiens, UniProt P34972)
Chain of UniProt P34972 (whole entry, looked up): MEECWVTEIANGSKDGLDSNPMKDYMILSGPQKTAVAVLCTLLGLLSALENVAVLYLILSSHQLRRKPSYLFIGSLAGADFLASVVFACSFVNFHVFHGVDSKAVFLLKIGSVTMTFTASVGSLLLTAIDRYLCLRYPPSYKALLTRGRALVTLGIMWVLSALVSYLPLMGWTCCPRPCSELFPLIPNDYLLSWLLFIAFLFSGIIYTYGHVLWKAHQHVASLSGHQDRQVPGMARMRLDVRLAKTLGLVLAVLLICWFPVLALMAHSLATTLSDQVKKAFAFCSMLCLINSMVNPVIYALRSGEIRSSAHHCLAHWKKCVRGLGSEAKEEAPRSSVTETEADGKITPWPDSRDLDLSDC
Chain of UniProt P08908 (whole entry, looked up): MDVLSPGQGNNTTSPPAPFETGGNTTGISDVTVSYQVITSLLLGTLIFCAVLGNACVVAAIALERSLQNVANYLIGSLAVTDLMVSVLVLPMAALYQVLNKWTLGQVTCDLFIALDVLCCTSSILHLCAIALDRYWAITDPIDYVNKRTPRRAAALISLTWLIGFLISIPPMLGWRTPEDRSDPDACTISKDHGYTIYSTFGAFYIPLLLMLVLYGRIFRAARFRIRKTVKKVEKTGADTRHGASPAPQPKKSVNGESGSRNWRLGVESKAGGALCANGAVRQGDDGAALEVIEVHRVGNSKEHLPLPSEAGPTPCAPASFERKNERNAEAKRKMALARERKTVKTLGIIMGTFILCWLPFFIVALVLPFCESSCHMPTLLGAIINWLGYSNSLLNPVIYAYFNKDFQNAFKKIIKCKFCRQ
Chain of UniProt P05177 (whole entry, looked up): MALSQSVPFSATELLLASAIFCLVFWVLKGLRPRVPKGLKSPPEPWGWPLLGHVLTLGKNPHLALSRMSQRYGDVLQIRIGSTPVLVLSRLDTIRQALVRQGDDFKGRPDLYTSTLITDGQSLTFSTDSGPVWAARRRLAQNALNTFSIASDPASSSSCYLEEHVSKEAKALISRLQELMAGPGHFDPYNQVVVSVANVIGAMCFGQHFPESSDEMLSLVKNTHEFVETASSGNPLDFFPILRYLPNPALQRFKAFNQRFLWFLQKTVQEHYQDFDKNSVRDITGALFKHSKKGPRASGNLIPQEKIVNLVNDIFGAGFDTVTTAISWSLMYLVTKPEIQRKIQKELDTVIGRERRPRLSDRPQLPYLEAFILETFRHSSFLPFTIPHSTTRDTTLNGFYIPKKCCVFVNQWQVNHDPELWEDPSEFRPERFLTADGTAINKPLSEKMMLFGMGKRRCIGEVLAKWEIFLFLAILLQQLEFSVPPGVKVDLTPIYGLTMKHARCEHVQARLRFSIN
Chain of UniProt Q9Y2R2 (whole entry, looked up): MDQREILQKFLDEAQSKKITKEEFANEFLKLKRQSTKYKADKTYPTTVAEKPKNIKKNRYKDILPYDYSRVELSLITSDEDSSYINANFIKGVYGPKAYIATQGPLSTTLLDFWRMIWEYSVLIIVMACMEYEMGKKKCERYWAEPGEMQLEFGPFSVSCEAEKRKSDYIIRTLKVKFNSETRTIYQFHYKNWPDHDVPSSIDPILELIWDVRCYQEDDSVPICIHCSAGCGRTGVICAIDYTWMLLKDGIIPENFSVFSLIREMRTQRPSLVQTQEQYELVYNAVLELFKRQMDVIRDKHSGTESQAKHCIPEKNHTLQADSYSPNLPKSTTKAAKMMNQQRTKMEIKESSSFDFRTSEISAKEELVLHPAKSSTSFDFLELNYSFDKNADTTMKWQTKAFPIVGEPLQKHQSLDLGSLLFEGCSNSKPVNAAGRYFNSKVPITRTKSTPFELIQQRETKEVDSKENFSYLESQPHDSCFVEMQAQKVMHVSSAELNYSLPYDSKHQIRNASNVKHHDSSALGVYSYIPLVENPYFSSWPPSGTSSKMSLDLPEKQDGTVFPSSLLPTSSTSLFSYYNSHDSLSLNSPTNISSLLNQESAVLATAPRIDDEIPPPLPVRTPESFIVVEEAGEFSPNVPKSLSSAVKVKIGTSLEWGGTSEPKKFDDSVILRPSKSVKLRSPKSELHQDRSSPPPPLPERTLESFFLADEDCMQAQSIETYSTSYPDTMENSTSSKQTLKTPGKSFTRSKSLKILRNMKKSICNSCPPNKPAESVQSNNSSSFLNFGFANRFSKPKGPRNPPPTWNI
Chain of UniProt P40337 (whole entry, looked up): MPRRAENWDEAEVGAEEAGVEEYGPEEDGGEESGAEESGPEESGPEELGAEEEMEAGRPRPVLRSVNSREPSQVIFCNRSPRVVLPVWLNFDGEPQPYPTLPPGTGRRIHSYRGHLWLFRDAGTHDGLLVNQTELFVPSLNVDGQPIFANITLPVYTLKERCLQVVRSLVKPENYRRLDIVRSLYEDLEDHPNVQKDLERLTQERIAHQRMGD
Chain of UniProt P28221 (whole entry, looked up): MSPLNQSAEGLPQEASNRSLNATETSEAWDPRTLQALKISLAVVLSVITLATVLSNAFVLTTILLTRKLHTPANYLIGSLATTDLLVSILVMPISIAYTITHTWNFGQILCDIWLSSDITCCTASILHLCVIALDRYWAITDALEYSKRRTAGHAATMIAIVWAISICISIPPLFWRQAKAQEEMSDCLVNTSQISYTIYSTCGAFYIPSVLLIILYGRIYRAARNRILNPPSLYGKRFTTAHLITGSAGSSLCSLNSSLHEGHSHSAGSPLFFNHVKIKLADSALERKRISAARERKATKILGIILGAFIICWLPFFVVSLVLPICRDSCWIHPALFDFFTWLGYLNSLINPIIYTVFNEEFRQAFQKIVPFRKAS
Chain of UniProt Q9GZQ6 (whole entry, looked up): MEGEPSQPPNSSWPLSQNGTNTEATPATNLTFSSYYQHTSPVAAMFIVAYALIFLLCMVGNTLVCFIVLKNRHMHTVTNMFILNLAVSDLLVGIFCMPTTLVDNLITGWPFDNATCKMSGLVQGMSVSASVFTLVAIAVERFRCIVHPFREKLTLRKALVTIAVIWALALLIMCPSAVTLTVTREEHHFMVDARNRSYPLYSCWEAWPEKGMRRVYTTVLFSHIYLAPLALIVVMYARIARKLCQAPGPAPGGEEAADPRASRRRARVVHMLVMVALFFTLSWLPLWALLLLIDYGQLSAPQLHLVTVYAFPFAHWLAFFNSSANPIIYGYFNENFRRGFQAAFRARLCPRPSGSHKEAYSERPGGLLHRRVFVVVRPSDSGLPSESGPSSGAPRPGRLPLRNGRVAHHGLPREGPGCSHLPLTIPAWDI

`CC(=O)NC1C(OC2C(O)C(CO)OC(O)C2OC2OC(C)C(O)C(O)C2O)OC(CO)C(O)C1O` (centres unmarked) gave a Kd of 1300 nM (slo; binding).
`C[N+](C)(C)CCc1c[nH]c2cccc(O)c12` gave a Ki of 4900 nM (HTR1D (Homo sapiens, UniProt P28221); ligand displacement, radioligand).
With `N=C(N)NCCCCC(=O)NCC1(Nc2ccccc2)CCN(Cc2ccccc2)CC1` the Ki was 2450 nM (NPFFR1 (Homo sapiens, UniProt Q9GZQ6); cell-free assay).
With `CCC[C@H](C(=O)c1ccccc1)N1CCCC1` the IC50 was 628000 nM (SLC6A4; transporter uptake, inhibitor, radiometric).
The Ki of `Fc1ccccc1CCNCc1cccc(Cl)c1Cl` is reported as greater than 20000 nM (SLC6A4; ligand displacement, radioligand; cell membranes).
`CC1=CC(C)=[N+]2C1=Cc1ccc(CCC(=O)NCCOCCOCCOCCOCC(=O)N[C@H](C(=O)N3C[C@H](O)C[C@H]3C(=O)NCc3ccc(-c4scnc4C)cc3)C(C)(C)C)n1[B-]2(F)F` gave a Kd of 2.98 nM (von Hippel-Lindau disease tumor suppressor, with elongin B/C (VHL, Homo sapiens, UniProt P40337); binding, TR-FRET; 180 min, added: BODIPY FL VH032).
The EC50 of `CCCCCn1cc(C(=O)c2cccc3c2CC(C)(C)C3)c2ccccc21` is reported as 1380 nM (CNR2; G protein activation, agonist, BRET).
For `Cc1ccccc1N1C(=O)/C(=C/c2ccc(OCc3cccc(C(=O)O)c3)cc2)C(=O)NC1=S`, the Ki was 384 nM (PTPN22 (Homo sapiens, UniProt Q9Y2R2); enzyme activity, inhibitor, fluorescence).
With `C[C@]12CC[C@H](OC(=O)C3CC3)[C@@](C)(COC(=O)C3CC3)C1C[C@H](O)[C@@]1(C)Oc3cc(-c4cccnc4)oc(=O)c3[C@H](O)C21` (some centres unmarked) the Ki was 0.01 nM (Halyomorpha halys Nan-Iav; radioligand competition binding).
For `CC(=O)Oc1cccc2[nH]cc(CC[N+](C)(C)C)c12`, the Ki was greater than 10000 nM (HTR1A (Homo sapiens, UniProt P08908); ligand displacement, radioligand; cell membranes).
With `CCCCCc1cc(O)c2c(c1)OC(C)(C)c1cc(O)c(C)cc1-2` the Ki was 123000 nM (Si (Rattus norvegicus, UniProt P23739); enzyme activity, inhibitor).
The Ki of `CCCCCc1cc(O)c2c(c1)OC(C)(C)C1CCC(C)=CC21` (single isomer, unassigned; (-)) is reported as 2000 nM (Cytochrome P450 1A2 (CYP1A2, Homo sapiens, UniProt P05177); enzyme activity, inhibitor; human, liver microsomes; pH 7.4).
With `CCCCCn1cc(C(=O)c2ccc3ccccc3c2)c2ccccc21` the EC50 was 39.8 nM (CNR2; β-arrestin recruitment, agonist, BRET).
`CC(=O)NC1C(OC2C(O)C(O)OC(CO)C2O)OC(CO)C(O)C1OC1OC(CO)C(O)C(OC2OC(CO)C(O)C(O)C2O)C1OC1OC(C)C(O)C(O)C1O` (centres unmarked) has a Kd of 0.116 nM and 0.12 nM (slo; binding).

For quick reference, copied from above:
`CC(=O)NC1C(OC2C(O)C(O)OC(CO)C2O)OC(CO)C(O)C1OC1OC(CO)C(O)C(OC2OC(CO)C(O)C(O)C2O)C1OC1OC(C)C(O)C(O)C1O` (centres unmarked) has a Kd of 0.116 nM and 0.12 nM (slo; binding).
